# Measured values gathered from unrelated publications.
# Protocols differ between the studies behind these lines. “And” joins repeats or separate records; there may be more than shown. ± marks the error that the study gave.
SMILES,test,system,conditions,scale,endpoint,value
O=C1Nc2ccc3ncsc3c2/C1=C/Nc1ccc2c(c1)CS(=O)(=O)C2,,octanol/buffer,"67 µM, pH 7.4",,logD,2.65
O=C1CC[C@H](N2Cc3cc(N4CCN(CC5CCN(c6ccc([C@@H]7c8ccc(O)cc8CC[C@@H]7c7ccccc7)cc6)CC5)CC4)ccc3C2=O)C(=O)N1,radiolabelled mass balance,"Sprague-Dawley rat, male, urine and feces","oral, 20 mg/kg, up to 168 h",,total dose excreted,95.7%
COc1cc2c(Nc3ccc(Cl)c(Cl)c3F)ncnc2cc1OC[C@@H]1C[C@@H]2CN(C)C[C@@H]2C1,,"FVB Mdr1a/b(-/-)Bcrp1(-/-) triple knockout mice, both sexes, brain","intraperitoneal infusion (osmotic pump), dose not given, 48 h",,brain concentration,30600 ng/g
O=C(COc1ccc(Cl)cc1)NC12CC(c3nnc([C@H]4C[C@@H](OC(F)(F)F)C4)o3)(C1)C2,,human both sexes,"oral, 260 mg once daily, 14 days",,participants with headache,71.4%
C[Si](C)(C)O[Si](C)(C)O[Si](C)(C)C,,1-octanol/water,concentration not given,,enthalpy of phase change,0.239 kcal/mol
O=C(O)CN1CCCN2CCN(CC(=O)O)CCCN(CC1)Cc1cccc(n1)C2,,64Cu complex,"48 h, 70 °C, together with: DOTA excess",,intact complex,95%
O=C(Nc1nc2cccc(-c3ccc(CN4CCS(=O)(=O)CC4)cc3)n2n1)C1CC1,refers to: epigastric discomfort,human rheumatoid arthritis patients,"oral, 300 mg once daily, 4 weeks, regardless of relatedness",,treatment-emergent adverse events,0%
O=C(O)CCC(=O)O.[2H]C([2H])([2H])Oc1cc(C)c2[nH]ccc2c1CN1CC[C@@H](C2CC2)C[C@H]1c1ccc(C(=O)O)cc1,,healthy Chinese subjects,"125 mg twice daily, multiple ascending dose",,subjects with drug-related TEAE,37.5%
CC(C)=CCC1=C(O)C(=O)c2ccccc2C1=O,cyclic voltammetry,"CH2Cl2, Bu4NPF6",0.1 mM,baseline: Ag/AgCl sat. KOH,Epc1 cathodic peak potential,0.85 V
CCO[C@H]1CCN(Cc2c(OC)cc(C)c3[nH]ccc23)[C@H](c2ccc(C(=O)O)cc2)C1,,"PNH patients, active haemolysis","oral, 25 mg, 4 weeks, treatment",,incidence of GGT increase,0%
CNC(=O)c1ccccc1Nc1cc(Nc2ccc(N3CCOCC3)cc2OC)ncc1C(F)(F)F,,aqueous buffer,"24 h, pH 1.2",,solubility,3600 µg/mL
C[C@@H](O)CCOC(=O)C[C@@H](C)O,,human,"oral drink, 60 min post dose, mean",,diastolic blood pressure,66 mmHg
CC(C(=O)NCC(=O)NCC(CNC(=O)CNC(=O)C(C)N1CCN(CC(=O)[O-])CCN(CC(=O)[O-])CCN(CC(=O)[O-])CC1)(CNC(=O)CNC(=O)C(C)N1CCN(CC(=O)[O-])CCN(CC(=O)[O-])CCN(CC(=O)[O-])CC1)CNC(=O)CNC(=O)C(C)N1CCN(CC(=O)[O-])CCN(CC(=O)[O-])CCN(CC(=O)[O-])CC1)N1CCN(CC(=O)[O-])CCN(CC(=O)[O-])CCN(CC(=O)[O-])CC1.[Gd+3].[Gd+3].[Gd+3].[Gd+3] (centres unmarked),ICP-MS,"female cynomolgus monkey, plasma","intravenous bolus, 0.1 mmol/kg, lanthanide mixture, geometric mean",baseline: AUC,terminal phase AUC share,0.459%
Cc1nc(N)sc1-c1ccnc(Nc2ccc(N(C)C)cc2)n1,,octanol/buffer,"67 µM, pH 7.4",,logD,3.32
COc1ccc2c(=O)n(C)c(-c3ccccc3)nc2c1,,"male Sprague-Dawley rat, testis","oral, 30 mg/kg, 4 h",baseline: testis over plasma,tissue/plasma ratio,11
Cc1ccc(Sc2ccccc2N2CCNCC2)c(C)c1,refers to: Nausea,healthy adult men,"oral, 10 mg daily, 12 days",,participants with TEAE,0%
COc1nc(-c2cc(C)c(N[C@@H](C)c3cc(F)cc(F)c3)nn2)ccc1-n1cnc(C)c1,,"C57BL/6J mice, male, brain","oral, 10 mg/kg daily for 9 days, 4 h after last dose",,brain concentration,2030 ng/g
CC(C)COC(=O)c1ccc2c(c1)/C(=N/Nc1ccc(S(N)(=O)=O)cc1)C(=O)N2,,octanol/buffer,"67 µM, pH 7.4",,logD,1.02
CC(C)(C(=O)N1CCOc2c(C#N)cncc2C1)C(F)F,,"human, both sexes","oral, 30 mg single dose",,subjects with cardiac disorder TEAE,0%
COc1ncc(-c2nc3c(n2C(C)C)[C@H](c2ccc(Cl)cc2)N(c2cc(Cl)cn(C)c2=O)C3=O)c(OC)n1,LC-MS/MS,"human, plasma","oral, 30 mg, cycle 1 day 14, low-dose arm",,AUC(0-last),961 ng·h/mL
CCN1/C(=C/C(C)=O)Sc2ccc(F)cc21,,cynomolgus monkey,"oral, 100 mg/kg, 1 h post-dose",,QTc interval (Bazett),336 ± 15 ms
c1ccc(-c2cccc(Nc3nccc(NC4CCCCC4)n3)c2)nc1,,MDCKII-WT cells,"10 µM, pH 7.4",baseline: Papp B-A over A-B,efflux ratio,0.87
CCOC(=O)[C@H](CCc1ccccc1)N[C@@H](C)C(=O)N1[C@H](C(=O)O)C[C@H]2CCCC[C@@H]21,,human plasma,"1000 pg/mL, 3 cycles at -20 °C",baseline: nominal,freeze-thaw stability,106 ± 6%
C[C@@H]1NC(=O)[C@H](CCCCNC(=O)CO/N=C/C(=O)NCCCC[C@@H]2NC(=O)[C@@H](Cc3ccccc3)NC(=O)[C@H](CC(=O)O)NC(=O)CNC(=O)[C@H](CCCNC(=N)N)NC2=O)NC(=O)CNC(=O)[C@@H]2CCCN2C(=O)[C@H](CCCCNC(=O)CO/N=C/C(=O)NCCCC[C@@H]2NC(=O)[C@@H](Cc3ccccc3)NC(=O)[C@H](CC(=O)O)NC(=O)CNC(=O)[C@H](CCCNC(=N)N)NC2=O)NC(=O)[C@H](CCCCNC(=O)CCNC(=O)CCNC(=O)CCNC(=O)[C@H](CCCCN)NC(=O)[C@H](Cc2ccccc2)NC(=O)CNC(=O)CN2CCCNCCNCCCNCC2)NC(=O)[C@H](CCCCNC(=O)CO/N=C/C(=O)NCCCC[C@@H]2NC(=O)[C@@H](Cc3ccccc3)NC(=O)[C@H](CC(=O)O)NC(=O)CNC(=O)[C@H](CCCNC(=N)N)NC2=O)NC(=O)CNC(=O)[C@@H]2CCCN2C(=O)[C@H](CCCCNC(=O)CO/N=C/C(=O)NCCCC[C@@H]2NC(=O)[C@@H](Cc3ccccc3)NC(=O)[C@H](CC(=O)O)NC(=O)CNC(=O)[C@H](CCCNC(=N)N)NC2=O)NC1=O [copper-64 labelled],RP-HPLC,radiolabelling buffer,"24 h, 37 °C",,intact fraction,98.6%
O=C(N[C@H](Cc1c[nH]c2ccccc12)C(=O)Nc1ccncc1)c1ccc(N2CCN(c3ccc(F)cc3F)CC2)cc1F,,"Swiss Webster mouse, female, heart","oral, 50 mg/kg, 2 h, 20% HPβCD vehicle",,concentration,3.87 µM
C=CC(=O)Nc1cc(Nc2nccc(-c3cn(C)c4ccccc34)n2)c(OC)cc1N(C)CCN(C)C,UHPLC-MS/MS,"human, dried blood spot finger-prick","oral, 80 mg once daily",,trough concentration,257 ng/mL and 211 ng/mL and 198 ng/mL and 185 ng/mL and 183 ng/mL and 201 ng/mL
Cc1cc(-c2nccc3c2ccn3CC(=O)Nc2ccc(-c3cnccn3)cn2)ccn1,,human,"20 mg once daily, multiple ascending dose",,subjects with serious TEAE,0%
Cc1ccc([C@@H]2O[C@H](CO)[C@@H](O)[C@H](O)[C@H]2O)cc1Cc1ccc(-c2ccc(F)cc2)s1,,Japanese type 2 diabetes patients,"200 mg, day 3, 24 h urine collection",baseline: baseline,urinary calcium excretion change,-30.1 mg
COc1cc2nccc(Oc3ccc(NC(=O)c4cc5c(n(-c6ccccc6)c4=O)CCCC5=O)nc3)c2cc1OC,,relapsed or refractory AML,"oral, all dose levels",,grade ≥3 Pneumonia patients,25%
CN(CCC#N)C1CCN(C(=O)Cn2cc(NC(=O)c3cnn4cccnc34)c(-c3cc(Cl)ccc3OC(F)F)n2)CC1,,healthy human,"10 mg once daily, day 42",baseline: baseline,LDL cholesterol change,-22.4 mg/dL
O=C(Nc1ccc(OC(F)(F)Cl)cc1)c1cnc(N2CC[C@@H](O)C2)c(-c2ccn[nH]2)c1,"per treatment cycle, refers to: platelet decrease",human patients,"oral, dose not given, 28 day cycle, dose-finding study",,grade ≥3 event rate,2.9%
[O]=[Co].[O]=[Co][O][Co]=[O],,"rat, male, faeces, 24-h collection","oral gavage, single, 300 mg/kg (220 mg Co/kg), day 3, vehicle 0.5% HPMC",baseline: vehicle control subtracted,cobalt concentration,23.3 µg/g
CCOC(=O)N1C[C@@H](c2ccc(F)c(C#N)c2)N[C@@H](c2ccc(C(=O)OC)cc2)C1,"shake-flask, 1-octanol/buffer",,pH 7.4,,logD,> 4.7
CCN1CCN(Cc2ccc(Nc3ncc(F)c(-c4cc(F)c5nc6n(c5c4)[C@H](C)CCC6)n3)nc2)CC1,,"human, Phase Ib patients, plasma","300 mg, single dose, median, together with: fulvestrant",,Tmax,9.95 h
CCOC(=O)N1C[C@@H](c2cccc(Br)c2)N[C@@H](c2ccc(F)c(C#N)c2)C1,"shake-flask, 1-octanol/buffer",,pH 7.4,,logD,> 4.7
N[C@@H]1c2ccccc2OC12CCN(c1cnc3c(N4CCCc5ncccc54)n[nH]c3n1)CC2,,"advanced metastatic solid tumour patients, plasma","oral, 100 mg once daily, cycle 1 day 1, geometric mean",,AUC(0-tau),5350 ng·h/mL
c1ccc2cc3ccccc3cc2c1,,fresh water,"12 (unit not given), 20 °C, SSP sampler, 100 µm",,log K(PDMS-water),3.86 ± 0.01
N#Cc1ccc2c(c1)[C@H]1CCCN(C(=O)c3ccc4[nH]cnc4c3)[C@H]1C2,,human females,"40 mg, day 15",,total testosterone level,1.2 nmol/L
COc1cc2c(cc1OC)CN(CCc1ccc(NC(=O)c3cccc4c(=O)c5cccc(OC)c5[nH]c34)cc1)CC2,,"Sprague Dawley rats, plasma","iv infusion, 0.09 mg/h/kg, 4 h",,total plasma concentration,34.4 ng/mL
C=CC(=O)NC1CCN(c2ncc3ncnc(Nc4ccc(Oc5ccc6c(c5)ncn6C)c(C)c4)c3n2)CC1,,healthy male volunteers,"intravenous then oral, dose not given, 1 week",,subjects with serious adverse events,0%
C=CC(=O)NC1CCN(c2ncc3ncnc(Nc4ccc(Oc5ccc6c(c5)ncn6C)c(C)c4)c3n2)CC1,,"human, male, plasma","oral, 30 mg, fed",baseline: fasted,AUC0-∞ reduction,25%
COc1ccc(-n2nc(C(N)=O)c3c2C(=O)N(c2ccc(N4CCCCC4=O)cc2)CC3)cc1,,"healthy mixed-breed dogs, plasma","oral, 0.5 mg/kg every 12 h for 7 days, after last dose",,terminal half-life,7.6 ± 0.7 h
Cc1nc2ccc(OCc3ccc(C(F)(F)F)cc3)cc2[nH]1,,"Balb/c mouse, male, kidney","oral, 10 mg/kg, 72 h",,tissue concentration,2.5 ± 0.8 ng/g
CN1CCN(c2cccc(-c3ccc4ncnc(Nc5ccc(Cl)c(Cl)c5)c4c3)c2)CC1,,human liver microsomes,,,CLint,< 3 µL/min/mg
NCCONC(=O)[C@@H]1CC[C@@H]2CN1C(=O)N2OS(=O)(=O)O,,healthy Chinese male subjects,"intravenous, 2 g",,number of Severe TRAE events,0
C[C@@H](Oc1ccc(S(C)(=O)=O)cc1C(=O)N1C[C@@H]2C[C@]2(c2cc(C(F)(F)F)on2)C1)C(F)(F)F,,human,"oral plus intravenous microtracer, dose not given",,subjects with related abdominal pain,0%
CC(C)(C)c1ccc([C@H]2COC[C@H](c3ccc(F)c(C#N)c3)N2)cc1,"shake-flask, 1-octanol/buffer",,pH 7.4,,logD,> 4.7
CCc1cc(C(=O)NC)c2nccc(N3CCc4c(cc(Cn5ccnc5)cc4-c4cn(C)nc4C(F)(F)F)C3=O)c2c1,,Sprague Dawley rats,"oral, 100 mg/kg once daily, 7 days",baseline: vehicle,serum PLT change,9.51%
Cc1cc(-n2nc3ccc(Cl)cc3n2)c(O)c(C(C)(C)C)c1,,EpiSkin reconstructed epidermis,36 h,,mass recovery,59.9%
CN(C(=O)n1cnc(-c2ccc[n+]([O-])c2)c1)[C@H]1CC[C@H](O)CC1,,"Wistar rat, midbrain","oral, 10 mg/kg/day of BIA 10-2474, 4 h, repeated 5 days",,concentration,14.5 ± 1 ng/g
Cn1cc(Nc2nccc(-c3ccc4c(c3)CN(C3COC3)CC[C@H]4NC(=O)c3cn(C(C)(C)C)nn3)n2)cn1,refers to: Monocytes count,"human, clinical trial, whole blood","150 mg twice daily, follow-up",,percent change from baseline,-12.4%
COc1ccc([N+](=O)[O-])cc1NC(=O)C(C)Oc1ccccc1C (centres unmarked),,octanol/buffer,pH 7.4,,logD,4.48
Brc1cccc([C@@H]2COC[C@H](C3CCCCC3)N2)c1,"shake-flask, 1-octanol/buffer",,pH 7.4,,logD,> 4.7
CCCOc1ccc(NC(=O)CN2CCN(C)CC2)cc1-c1nc(CC)c(CC)c(=O)[nH]1,,healthy Chinese men,"10 mg, together with: alcohol 0.5 g/kg",,headache incidence,13.3%
Cn1cncc1-c1c(F)cncc1NC(=O)c1c(N)nn2cc(F)cnc12,two-compartment PK model,"xenograft-bearing mice, plasma",,,distribution rate constant k21,0.1 h⁻¹
COc1ccc2[nH]c([S+]([O-])Cc3ncc(C)c(OC)c3C)nc2c1 (centres unmarked),,"healthy Chinese volunteers, CYP2C19 poor metabolizers","oral, 20 mg, fed",,t1/2,2.72 ± 0.92 h
